Published values of several laboratories.
Cell line: RAW264.7

O=c1c2cc(Cl)ccc2oc2nc(N3CCCCC3)sc12  CC50 (cell growth or viability, MTT; 48 h): > 200 µM
CC(=O)O[C@@H]1CC[C@@]2(C)C(CC[C@]3(C)C2C(=O)C=C2C4[C@@H](C)[C@H](C)CC[C@]4(C)CC[C@]23C)[C@@]1(C)C(=O)OCc1cn(CC(=O)Oc2cc(C)ccc2C(C)C)nn1 (some centres unmarked)  viability (cell growth or viability, MTT; 25 µM, 24 h): 100%
O=C([O-])CN1CCN(CC(=O)[O-])CCN(C(CCC(=O)NC(Cc2c[nH]c3ccc(O)cc23)C(=O)NCCc2c[nH]c3ccc(O)cc23)C(=O)O)CCN(CC(=O)[O-])CC1.[Gd+3] (centres unmarked)  cytotoxicity (MTT; up to 5 mM, 16 h, 37 °C): not toxic
O=C1C(O)=C(I)C(=O)c2ccccc21  CC50 (cell growth or viability, resazurin): 56.2 µM
O=C(CCc1ccc(O)c(O)c1)NCCc1ccc(O)c(O)c1  IC50 (cytotoxicity; 24 h): > 100 µM
CC(C)=CCc1c2c(c(O)c3c(=O)c(-c4ccc(O)cc4)coc13)CC(C(C)(C)O)O2 (centres unmarked)  viability (cell growth or viability, MTT; 12.5 µg/mL, 24 h): 107%
COc1ccc(CCNC(=O)/C=C/c2ccc(O)c(O)c2)cc1OC  IC50 (cytotoxicity; 24 h): > 100 µM
CC(=O)Oc1ccc(Cn2ccc(=O)[nH]c2=O)cc1C1OC(c2ccc(Cl)cc2)=NN1C(C)=O (centres unmarked)  CC50 (cell growth or viability, resazurin): > 100 µM
CC#CCC#CCCCC(OC(C)=O)C(=O)NCCCOc1ccc2c(-c3ccccc3C(=O)OCC)c3ccc(=O)cc-3oc2c1 (centres unmarked)  time to saturation of labelling (5 µM, 37 °C, 10% FBS DMEM, no competitor): 3.75 min
CC(=O)O[C@@H]1CC[C@@]2(C)C(CC[C@]3(C)C2C(=O)C=C2C4[C@@H](C)[C@H](C)CC[C@]4(C)CC[C@]23C)[C@@]1(C)C(=O)OCC(=O)Oc1cc(C)ccc1C(C)C (some centres unmarked)  viability (cell growth or viability, MTT; 25 µM, 24 h): 88%
COc1ccc(-c2coc3c(CC=C(C)C)c(O)c(CC=C(C)C)c(O)c3c2=O)cc1O  viability (cell growth or viability, MTT; 50 µg/mL, 24 h): 5.01%
O=c1c2cc(Cl)cc(Cl)c2oc2nc(N3CCCCC3)sc12  CC50 (cell growth or viability, MTT; 48 h): > 200 µM
CC(C)=CCc1cc(-c2coc3cc(O)c(CC=C(C)C)c(O)c3c2=O)ccc1O  viability (cell growth or viability, MTT; 50 µg/mL, 24 h): 8.67%
O=c1c2ccccc2oc2nc(N3CCC(N4CCCCC4)CC3)sc12  CC50 (cell growth or viability, MTT; 48 h): 108 µM
CC(=O)O[C@@H]1CC[C@@]2(C)C(CC[C@]3(C)C2C(=O)C=C2C4[C@@H](C)[C@H](C)CC[C@]4(C)CC[C@]23C)[C@@]1(C)C(=O)OCc1cn(-c2cc(=O)oc3ccccc23)nn1 (some centres unmarked)  viability (cell growth or viability, MTT; 25 µM, 24 h): 103%
CC(=O)Oc1ccc(Cn2cc(C)c(=O)[nH]c2=O)cc1C1OC(c2cccc(Cl)c2)=NN1C(C)=O (centres unmarked)  CC50 (cell growth or viability, resazurin): > 100 µM
CC(=O)O[C@@H]1CC[C@@]2(C)C(CC[C@]3(C)C2C(=O)C=C2C4[C@@H](C)[C@H](C)CC[C@]4(C)CC[C@]23C)[C@@]1(C)C(=O)N/N=C\c1ccccc1O (some centres unmarked)  viability (cell growth or viability, MTT; 25 µM, 24 h): 95%
CC(=O)Oc1ccc(Cn2cc(F)c(=O)[nH]c2=O)cc1C1OC(c2cccc(Cl)c2)=NN1C(C)=O (centres unmarked)  CC50 (cell growth or viability, resazurin): > 100 µM
COc1cc2c(cc1O)[C@]1(O)C(=O)c3c(O)cc4c(c3O[C@@H]1CO2)C=CC(C)(C)O4  viability (cell growth or viability, MTT; 100 µg/mL, 24 h): 5.53%
CC(=O)Oc1ccc(Cn2nc(C)c(=O)[nH]c2=O)cc1C1OC(c2cccc(Cl)c2)=NN1C(C)=O (centres unmarked)  CC50 (cell growth or viability, resazurin): 21.7 µM
Cc1ccc(C)c2sc(NC(=O)C3CCN(S(=O)(=O)c4ccc(F)cc4)CC3)nc12  cytotoxicity (MTT; up to 30 µM, 24 h): not toxic
CC(=O)Oc1ccc(Cn2cc(F)c(=O)[nH]c2=O)cc1C1OC(c2ccccc2)=NN1C(C)=O (centres unmarked)  CC50 (cell growth or viability, resazurin): > 100 µM
CC(C)=CCc1c(O)c(CC=C(C)C)c2occ(-c3ccc(O)c(O)c3)c(=O)c2c1O  viability (cell growth or viability, MTT; 100 µg/mL, 24 h): 5.66%

Repeated from above:
O=c1c2cc(Cl)ccc2oc2nc(N3CCCCC3)sc12  CC50 (cell growth or viability, MTT; 48 h): > 200 µM
O=C([O-])CN1CCN(CC(=O)[O-])CCN(C(CCC(=O)NC(Cc2c[nH]c3ccc(O)cc23)C(=O)NCCc2c[nH]c3ccc(O)cc23)C(=O)O)CCN(CC(=O)[O-])CC1.[Gd+3] (centres unmarked)  cytotoxicity (MTT; up to 5 mM, 16 h, 37 °C): not toxic
O=C1C(O)=C(I)C(=O)c2ccccc21  CC50 (cell growth or viability, resazurin): 56.2 µM
